Results from different studies.
Every numbered part comes from another study and shows a few of its results, in no order. Substitutions count along the parent as printed.

Set 1 — technique: DHFR PCA, deep sequencing; sample: yeast; together with: (+)-ABA 4.8 µM; reference: wild-type fitted maximum; reading: higher = stronger binding
Target: ABI1, truncated, D143A, DHFR fusion (Arabidopsis thaliana)
Setting: methotrexate growth selection, single substitutions
Starting sequence: PYL1, truncated, DHFR fusion (Arabidopsis thaliana); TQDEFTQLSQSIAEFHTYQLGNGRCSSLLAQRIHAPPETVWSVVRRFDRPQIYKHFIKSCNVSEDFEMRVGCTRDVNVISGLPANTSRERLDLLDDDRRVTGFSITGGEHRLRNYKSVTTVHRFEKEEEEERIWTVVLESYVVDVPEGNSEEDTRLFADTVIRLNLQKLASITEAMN; partner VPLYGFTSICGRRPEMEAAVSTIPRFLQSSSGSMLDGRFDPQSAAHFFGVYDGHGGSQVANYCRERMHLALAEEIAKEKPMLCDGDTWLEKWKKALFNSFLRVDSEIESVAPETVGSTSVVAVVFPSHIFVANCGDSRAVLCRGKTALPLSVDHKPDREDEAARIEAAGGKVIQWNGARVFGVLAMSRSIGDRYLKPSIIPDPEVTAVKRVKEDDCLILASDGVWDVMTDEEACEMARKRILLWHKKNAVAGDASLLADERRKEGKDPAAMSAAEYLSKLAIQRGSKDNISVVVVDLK
Substitution	relative binding score [%]
H55M	86.5
L156N	58
W134G	68.4
K168L	0.808
S59N	59.6
T135L	-6.56
A35Y	0.627
Q31I	26.4
S171L	63.6
E14A	40
Q19W	33
F15I	11.1

Set 2 — target: CCND3, cyclin fold, Cln2 fusion (human); technique: yeast growth competition, sequencing; sample: yeast; setting: weak parent motif; reference: not given; reading: higher = stronger binding
Starting sequence: BORA docking peptide (human); SSLRRKLFLDGNG
Substitution	normalised enrichment score
SSLRKKLFLDGNG [R5K]	0.536
SSLARKLFLDGNG [R4A]	0.104
SSLRRKLALDGNG [F8A]	0.18
SSLRRALFLDGNG [K6A]	0.202
SSLRRKLFLDANG [G11A]	0.174
ASLRRKLFLDGNG [S1A]	0.0949
SSLRKKLLLDGNG [R5K F8L]	0.175
SSLRRKLFLAGNG [D10A]	0.0936

Set 3 — technique: RNA Bind-n-Seq; molecule type: RNA; sample: in vitro; concentration: 200 nM; setting: whole 134-nt RNA, ends assumed; together with: 150 mM KCl; reference: input library; reading: higher = stronger binding
Target: Ras GTPase-activating protein-binding protein 1, full length (G3BP1, Homo sapiens, UniProt Q13283)
UniProt Q13283, sequence (whole entry, looked up): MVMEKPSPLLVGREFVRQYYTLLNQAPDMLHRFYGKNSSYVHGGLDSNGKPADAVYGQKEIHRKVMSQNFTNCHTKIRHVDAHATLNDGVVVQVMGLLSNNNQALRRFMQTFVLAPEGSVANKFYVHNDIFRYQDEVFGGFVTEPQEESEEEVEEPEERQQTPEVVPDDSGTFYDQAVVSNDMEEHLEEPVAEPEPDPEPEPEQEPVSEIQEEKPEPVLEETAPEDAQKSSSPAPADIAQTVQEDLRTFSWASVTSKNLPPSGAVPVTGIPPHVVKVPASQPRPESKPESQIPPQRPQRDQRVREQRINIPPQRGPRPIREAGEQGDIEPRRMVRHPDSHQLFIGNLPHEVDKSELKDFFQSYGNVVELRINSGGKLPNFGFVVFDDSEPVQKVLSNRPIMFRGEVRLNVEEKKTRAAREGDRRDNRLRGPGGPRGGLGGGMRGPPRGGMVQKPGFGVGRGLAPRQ
Constant ends, left off below: GGGAGUUCUACAGUCCGACGAUC … UGGAAUUCUCGGGUGUCAAGG
Oligonucleotide	log2 enrichment
UAACUUUAGAGGAGGAUCUGAUGGAUAUGGCAGUGGACGUGGAUUUGGGGAUGGCUAUAAUGGGUAUGGAGGAGGACCUGGAGGUAGCAA	0.186
ACCAUGCAGGUGGGCAUCUUUGGGAAGUGGGGCAAGGGGGGGAUAGGGAGGGGGGUAACACUUUGGGAACAGGUGGUCUCAGGUCGUUUC	1.4
CACAGACAACACGCUCCCACACAGACACAGAGGGAAGGGGUUGGGAUGGGGACAGGGUGCACAGCAGGGCGGGGUAGGACCCCAGCCCCU	2.43
UAACUUUAGAGGAGGAUCUGAUGGAUAUGGCAGUGGACGUGGAUUUGGGGAUGGCUAUAAUGGGUAUGGAGGAGGACCGGGAGGUGGCAA	0.248
AGUCCUGUGCUACACAUCGUAUGUACCGAAUCGGGGUUUUUGGGGUUUGGGGUGGGGAAAGUAUUAUGUUACGCCGUUCGGAUCUGCACU	0.654
AAGUCCUGUGCUACACAUCGUAUGUACCGAAUCGGAAAAGGGAAAAGGGAAAAGGGGAAAGUAUUAUGUUACGCCGUUCGGAUCUGCACU	-0.568
GCAGGAAGUAAAAACAAAUGGAAAUGCUUCGGAUAGUGGCAGGGGUGGGGGUUGCUAAGGAAAGGGUGGGAUGGGAGUGGAAAAAGAGUU	0.802
AAGUCCUGUGCUACACAUCGUAUGUACCGAAUCGGCCCCCGGGCCCCCGGCCCCCGGAAAGUAUUAUGUUACGCCGUUCGGAUCUGCACU	-0.741
AGUCCUGUGCUACACAUCGUAUGUACCGAAUCGGUUUUUGGUUUUUUUGGUUUUUGGAAAGUAUUAUGUUACGCCGUUCGGAUCUGCACU	-1.33
CUGUGCUACACAUCGUAUGUACCGAAUCGGGGUUUUUUUGGGGUUUGGGGUUUUUUUGGGGAAAGUAUUAUGUUACGCCGUUCGGAUCUG	-0.286
UGGCCGGUGGCCGUGAGAACACGCUGUGUGGCUGAAAAGUGAAGGCAAGAGCUGAUUUGGCCUCUGUGCUCCCCUCCGCAAGGGGAUCGU	-0.607
UCAAGUCCUGUGCUACACAUCGUAUGUACCGAAUCGGGAAAGGAAAGGAAAGGGGAAAGUAUUAUGUUACGCCGUUCGGAUCUGCACUUC	-0.647
CUCAAGUCCUGUGCUACACAUCGUAUGUACCGAAUCGGGGCCGGCCGGGCCGGGAAAGUAUUAUGUUACGCCGUUCGGAUCUGCACUUCC	-0.312
CCUCAAGUCCUGUGCUACACAUCGUAUGUACCGAAUCGGGCGGGGCGGCGGGGAAAGUAUUAUGUUACGCCGUUCGGAUCUGCACUUCCA	0.953

Set 4 — target: CEP164, C-terminal peptide (human); technique: DHFR complementation, deep sequencing; sample: yeast; reference: wild type; reading: higher = weaker binding
Setting: single substitutions, model-inferred values
Starting sequence: PDZK1, PDZ domain 2 (human); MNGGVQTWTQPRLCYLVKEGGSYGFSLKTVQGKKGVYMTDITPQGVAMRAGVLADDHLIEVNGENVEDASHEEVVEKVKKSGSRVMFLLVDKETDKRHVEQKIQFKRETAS; partner HNRVKVYRF
Substitution	binding free energy change
A47S	0.905 kcal/mol
R84L	0.695 kcal/mol
D91E	0.156 kcal/mol
V66C	0.228 kcal/mol
E72P	0.941 kcal/mol
R107C	-0.109 kcal/mol
D95M	-0.136 kcal/mol
N65E	0.235 kcal/mol
Q44M	0.0267 kcal/mol
V66F	0.789 kcal/mol
G45N	1.42 kcal/mol
T39W	0.198 kcal/mol
L58T	0.217 kcal/mol
G4E	0.0227 kcal/mol

Set 5 — technique: RNA Bind-n-Seq; molecule type: RNA; sample: in vitro; concentration: 365 nM; reference: no-protein control; reading: higher = stronger binding
Target: RNA binding protein fox-1 homolog 2, RRM domain, GST-SBP tag (RBFOX2, Homo sapiens, UniProt O43251-10, residues 100-194)
Setting: natural RNA segment, single round, ends assumed
Constant ends, left off below: GGGAGUUCUACAGUCCGACGAUC … UGGAAUUCUCGGGUGCCAA
Target sequence (chain): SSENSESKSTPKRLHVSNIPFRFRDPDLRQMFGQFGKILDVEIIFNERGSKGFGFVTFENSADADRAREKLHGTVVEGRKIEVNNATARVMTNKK
Oligonucleotide	RBNS enrichment (R)
UCCCGGCCCUCCCCAGGGCCCCCCGCCCCCUCCUCUGCCUGCUGCGUGGAGGCAGCCAUGGGAAGGAGCCCAGGGGAGCUGGCCUGGGGGAGCGAAGCCCAUGUUCGCUU	0.551
GCUUGCUGGAAGGGUAGUAUUAACUAUUUAACAUGUAAUGGUGUACUUCACUCUUACCUAGCACGCUGUCUUCUCAUUGCUUUGGGGGAGGGAGGGUCUCUCUGCUGGCA	1.02
AAAUCUAAUAUAUGAAGUAGUAAUGAAAAUGAAGUAGUAAUUUAACCAGAGUUCAUUUAUCCUUGAAUAAACCUUUUUAUUUUCACCUCAGAAAAGUGAGUGUACUGGCA	0.381
AAUAAAAUUUAAGAAACAAAGGAUUCUGGGAACAGACAGGAAGGGCCCUAGGUUACAUUUUUGGUGAUGAUCCUCUCAGAACUUUUGUAAUUUUAUUUUAAAAUGUGUAU	0.64
CCUUGCCUACCUCUUUCUAUCUCCCAGCAGCCCUCAGGUAGCAGUUGAUUUAUUUUACACCUCUGCUUAGGCCUCCUGCCUGGAGAUGAGCCAUGCUGUUGUGAGAUUUU	0.408
GCCGCCUUCCUGUGCCAAAUUCAGUGGGGACUCAGUGCCCAGGCCCUGGCCACGAGCUUUGGCCUUGGUCUACCUGCCAGGCCAGGCAAAGCGCCUUUACACAGGCCUCG	0.338
AGGGACAAGAAUCAAUGGAUAAGCGUGGGUGGAGGAAGAUCCAAACAGAAAAGUGCAAAGUUAUUCCCCAUCUUCCAAGGGUUGAAUUCUGGAGGAAGAAGACACAUUCC	0.58
UUCCAGGCCUGCCUGCCGUGGAGUUGACUGGGGGAAUUUUACAGUUUUGCGAUCCUAGGAUGCGUCCCAGACGCUCAGUCAGAAGUGCUGGAGGUGGGGCCUGGGAAGCU	0.567
AGGAAGACAAAGGAAGGGCCAAGGGCACCCCCGUCUAGAAUGCCAGAACCAGCGGGUGGCCUUAGGGGCUGUGAGGCAGUGGGGACCUUAUUGAUGAAAGAAACCGUCUU	2.75
CAGAAGGGAGAGUGGUAUAGAUAGAAAAUGACAAAGAUGGCAAUAUACACUUAAUGUUGUUAUUGUAUGUUGUUACUGAAGUACUUAGAUUUUUAAAAUUUCAAAUCCUA	0.398
CCAAGUCUGGCACCAUGUUGGCCUCUUCAGGCCUGCUAGUCACUGGAAAUUGAGGUCCAUGGGGGAAAUCAAGGAUGCUCAGUUUAAGGUACACUGUUUCCAUGUUAUGU	0.287
CAGGUGGUAGUCACAUCACCAGAGUGAUCAGUAUAAAUUUUCUUGGUGUAUCCUUUUCCUUUCAACACAGUGCAGAUAAGAGUUGAAUAUUGAUAUCAUACAUUUAGACU	0.463

Set 6 — technique: protein-binding microarray; molecule type: double-stranded DNA, one strand shown; sample: in vitro; concentration: 250 nM; setting: 60-bp whole probe; together with: salmon DNA 0.4 mg/ml; reference: random background probes; reading: higher = stronger binding; constant ends, left off below: GCCTAGCAC … GTCTTGATTCGCTTGACGCTGCTG
Target: Interferon regulatory factor 5, full length, phosphomimetic (IRF5, Homo sapiens, UniProt Q13568-2, residues 1-514, K96S/S451D/S453D/S456D/S462D)
Oligonucleotide	log fluorescence [z-score]
GACGGTATCGAATATCGGGACGTGCTA	2
GTGTATATACTATATGCATGTGTGCTA	0.482
GACGATTTCCTACTGCTGACGTGCTAG	0.28
TTAGAAATGGGGACTGGATTAGTGCTA	0.0298
TTCGATATCGGGTTTCGATTAGTGCTA	8.25
TTAGAGCTCAGTTTCGATTAGTGCTAG	9.4
TTAGGTATCGGATTTCGGTTAGTGCTA	6.13
AAGTTTCTCCTTTCCAAATAGTGCTAG	3.99
GACGGTTTCGGGTCTGGGGACGTGCTA	6.94
GGCGATTTCAGTATCGAGACGTGCTAG	3.94
TCATATATATAATATATAACTGTGCTA	0.881
AGGAAGATCATTCTCACTGCGTGCTAG	-0.0171
GACAGTTTCGGTCTCGGGACGTGCTAG	10.8
TTACAACTGAGACTGGATTAGTGCTAG	0.347
TCTGTTTTTGCTTTCCTTTAGTGCTAG	2.32
TTAGATTTCGGGTAGCGATTAGTGCTA	5.55
GACGCTTTCGGTATCGGGACGTGCTAG	10.3
CTACACATCTCACTCTAATCGTGCTAG	0.448
TGCTGTGTACATCTCTCTTAGTGCTAG	0.0567
TCAGCTTTTTTTCCGAGACTGTGCTAG	0.396
TTAGGTCTCCTTCTCCTTCAGTGCTAG	-0.14
TCATTCATGAAGTTTTAAACTGTGCTA	0.659

Some of these lines once more (set 3):
Oligonucleotide	log2 enrichment
CUGUGCUACACAUCGUAUGUACCGAAUCGGGGUUUUUUUGGGGUUUGGGGUUUUUUUGGGGAAAGUAUUAUGUUACGCCGUUCGGAUCUG	-0.286
AAGUCCUGUGCUACACAUCGUAUGUACCGAAUCGGCCCCCGGGCCCCCGGCCCCCGGAAAGUAUUAUGUUACGCCGUUCGGAUCUGCACU	-0.741
AAGUCCUGUGCUACACAUCGUAUGUACCGAAUCGGAAAAGGGAAAAGGGAAAAGGGGAAAGUAUUAUGUUACGCCGUUCGGAUCUGCACU	-0.568
CCUCAAGUCCUGUGCUACACAUCGUAUGUACCGAAUCGGGCGGGGCGGCGGGGAAAGUAUUAUGUUACGCCGUUCGGAUCUGCACUUCCA	0.953
AGUCCUGUGCUACACAUCGUAUGUACCGAAUCGGUUUUUGGUUUUUUUGGUUUUUGGAAAGUAUUAUGUUACGCCGUUCGGAUCUGCACU	-1.33
CACAGACAACACGCUCCCACACAGACACAGAGGGAAGGGGUUGGGAUGGGGACAGGGUGCACAGCAGGGCGGGGUAGGACCCCAGCCCCU	2.43
CUCAAGUCCUGUGCUACACAUCGUAUGUACCGAAUCGGGGCCGGCCGGGCCGGGAAAGUAUUAUGUUACGCCGUUCGGAUCUGCACUUCC	-0.312
GCAGGAAGUAAAAACAAAUGGAAAUGCUUCGGAUAGUGGCAGGGGUGGGGGUUGCUAAGGAAAGGGUGGGAUGGGAGUGGAAAAAGAGUU	0.802
